Assay results collected from several papers.
A part holds a random share of what one study measured. Positions count from the first letter of the parent shown.

Set 1
Target: Histone acetyltransferase KAT6A, winged helix 2, GST fusion (KAT6A, Homo sapiens, UniProt Q92794, residues 85-181)
Method: protein binding microarray
Molecule type: double-stranded DNA, one strand shown
Sample: in vitro
Tested at: not given
Notes: 8-mer, flanks averaged, mean of 2 arrays, mostly near background
Baseline: not given
Direction: higher = stronger binding
Quantity: E-score
Construct (chain): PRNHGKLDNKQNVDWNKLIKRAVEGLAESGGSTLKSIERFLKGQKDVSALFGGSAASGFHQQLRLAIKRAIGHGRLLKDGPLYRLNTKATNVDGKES
GCTACTTA: -0.0963
GGAGTCCA: -0.0258
CCATATTC: 0.0757
CAGATGTC: -0.121
TATTAAGA: 0.107
AGTCTAAT: -0.0821
GCAATGGC: 0.0263
AGTATACC: -0.0834
TGGCCGAA: 0.108
CCCAACTA: 0.0565
CGAGCCTA: 0.00677
CCGGACGC: 0.149
ACGCCGCA: 0.206
AGGTTTTG: 0.0623
CTGATTCC: -0.065
AATCTTCT: -0.0617
ACAGCAAT: 0.141
AAAACTAT: -0.13
GTAGGGAC: -0.136
CTTTCGGA: -0.0572
CCCACGAG: 0.124
ATGTGCGG: 0.025
CCACAGCC: -0.00758
ACGATCCC: -0.161
CTTATGTC: 0.028

Set 2
Target: PABPC1L2, full length, GST fusion (mouse, UniProt A0ABA7IW68)
Method: RNAcompete
Molecule type: RNA
Sample: in vitro
Tested at: 20 nM
Notes: 7-mer, probes averaged, single round
Baseline: mean of 7-mers
Direction: higher = stronger binding
Quantity: 7-mer Z-score
ACGCAGA: 0.131
CGUUCCA: -0.249
CAGUUUA: -0.0935
AUACUUU: -0.0518
CCAGACG: 0.124
CUAGCAU: -0.153
UUCCCUU: -0.389
AUAUCAA: 0.16
GACUCCU: -0.315
GGUGGCU: 0.12
AUAGACC: -0.0573
GCGCAUC: -0.159
ACCCCAG: -0.202
GGCUUGA: -0.0301
UGCUAGC: -0.26
GAUUAGU: -0.206
AGUUGCC: -0.0482
CACCCGC: -0.318
CUCUACU: -0.291
UGGGGCA: 0.483
AGUCUGU: -0.275
CAAUCGU: -0.104
AGCGACC: 0.321
UCCACCU: -0.333
CCGACUU: -0.286

Set 3
Target: CCNA1, cyclin fold, Cln2 fusion (human)
Method: yeast growth competition, sequencing
Sample: yeast
Notes: weak parent motif
Baseline: not given
Direction: higher = stronger binding
Quantity: normalised enrichment score
Starting sequence: TICRR docking peptide (human); TKVRRNLFNQELL; partner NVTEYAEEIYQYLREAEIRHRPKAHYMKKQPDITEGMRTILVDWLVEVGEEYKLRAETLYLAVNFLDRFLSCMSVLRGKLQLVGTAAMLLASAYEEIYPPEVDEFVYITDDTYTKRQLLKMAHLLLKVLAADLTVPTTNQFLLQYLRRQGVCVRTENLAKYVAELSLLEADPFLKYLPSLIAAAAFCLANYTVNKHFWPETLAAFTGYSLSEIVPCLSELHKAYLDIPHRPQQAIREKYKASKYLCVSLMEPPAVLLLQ
TKVRRNLFNQEAL [L12A]: 0.172
TKARRNLFNQELL [V3A]: 0.00737
AKVRRNLFNQELL [T1A]: 0.426
TKVRRNAFNQELL [L7A]: 0.286
TAVRRNLFNQELL [K2A]: 0.74
TKVRRNLFNAELL [Q10A]: 0.349
TKVRANAFNQELL [R5A L7A]: 0.0627
TKVRKNLFNQELL [R5K]: 0.217
TKVRRNLFNQALL [E11A]: 0.317
TKVRRNLLNQELL [F8L]: 0.711

Set 4
Target: Centromere-binding protein 1, full length, His-tagged (CBF1, Saccharomyces cerevisiae, UniProt P17106, residues 1-351)
Chain of UniProt P17106 (whole entry, looked up): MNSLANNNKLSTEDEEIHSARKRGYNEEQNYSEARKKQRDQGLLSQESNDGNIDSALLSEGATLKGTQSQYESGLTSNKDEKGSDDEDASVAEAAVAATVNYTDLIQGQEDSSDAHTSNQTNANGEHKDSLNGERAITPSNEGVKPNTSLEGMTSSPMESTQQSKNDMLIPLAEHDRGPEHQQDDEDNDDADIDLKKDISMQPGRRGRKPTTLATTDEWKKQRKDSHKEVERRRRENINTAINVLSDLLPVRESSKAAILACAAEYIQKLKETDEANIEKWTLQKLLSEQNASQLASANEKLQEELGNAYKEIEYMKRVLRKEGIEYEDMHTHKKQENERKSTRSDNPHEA
Method: competition protein-binding microarray
Molecule type: double-stranded DNA, one strand shown
Sample: in vitro
Tested at: 2 µM
Notes: whole 60-bp probe, lowest competitor level
Added: Pho4 competitor, 0.05 µM
Direction: higher = stronger binding
Quantity: fluorescence intensity
CTTTCCCGATCTTGCCACGTGGGTGTAGCACATTTGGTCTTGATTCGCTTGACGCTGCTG: 876 a.u.
CTTCTGTAAATTTTTCACGTGCGCTGACGCGCCCCGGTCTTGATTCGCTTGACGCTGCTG: 966 a.u.
GTTGTTCCATGCTCAGTTGTGATATTGAATGCCCTCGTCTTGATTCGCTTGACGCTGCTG: 76.2 a.u.
AATAAGTTCATCGACCACGCACACTTCACCAAGTTAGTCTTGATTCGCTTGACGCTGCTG: 82.8 a.u.
CATACCCAACCTTTTCACGTGGATTAAGATATTTGTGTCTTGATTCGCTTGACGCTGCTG: 784 a.u.
AACCAGTCCAAAAAGTACGTGCAATAAAAGAAGTTGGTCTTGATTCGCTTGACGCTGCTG: 102 a.u.
CTTCTGTAAATTTGTCATGTGGGTGGACGCGCCCCGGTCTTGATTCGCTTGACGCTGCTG: 159 a.u.
TTTTTCCCTAGAAAAATCGTGCTAACAGGTATATCAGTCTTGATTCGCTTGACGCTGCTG: 84.6 a.u.
AGTTAGAGGAAAAAGCACGCAAAAAGGGCACACAGGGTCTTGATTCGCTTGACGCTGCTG: 79.2 a.u.
TATAATATCCGTTCGCATGTGAGTTGGCGACCTTTGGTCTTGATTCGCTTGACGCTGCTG: 91.5 a.u.
AAAGCGGTAATTTGCCACGTGTTTTCACATATCTATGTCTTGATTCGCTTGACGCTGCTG: 1430 a.u.
ATGCTTTAGTCTGGACTCGTGATGGTTCAACGATTTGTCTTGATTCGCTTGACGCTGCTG: 256 a.u.
GTTAATGATATGTTTCACGTGGTGAGATTTTTTTTGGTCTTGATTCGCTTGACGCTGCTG: 1270 a.u.
TGTCAATGTCGCCGTCACATGGGAAGAAAGGTGGGAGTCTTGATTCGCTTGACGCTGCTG: 460 a.u.
CGGGGTTAAGTTTGTCACAGGACTTGCTTGCAGCAGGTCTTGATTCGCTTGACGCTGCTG: 101 a.u.
CTTTCCCGATCTTTTCACGTGCCATTAGCACATTTGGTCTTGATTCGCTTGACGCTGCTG: 1270 a.u.
TACATTGCTGTATTGCACGGCCCTTGCGGGTATGGCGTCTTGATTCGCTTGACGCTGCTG: 62.5 a.u.
TTTTTTGCGTCCTACAGCGTGATGGAAATTTCGCCTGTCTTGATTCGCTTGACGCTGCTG: 164 a.u.
AATGAGCAAAACTGGCACGATCCTGAAAAGAGCACTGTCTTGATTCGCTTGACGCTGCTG: 72.5 a.u.
TTATATCCGACGTCCCACGTGTCGGCGAAGCTCGGAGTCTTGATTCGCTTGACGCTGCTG: 643 a.u.
TTACAGATAATGGTGCATGTGATAGGCTTCGTACCAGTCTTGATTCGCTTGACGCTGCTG: 620 a.u.
ATACTCACAATAATACATGTGTCTTAGAACCTCAGTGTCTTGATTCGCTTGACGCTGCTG: 129 a.u.
GATCCCGCTCCTTGGCGTGTTCATTCTGTTACGATCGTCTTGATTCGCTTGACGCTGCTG: 73.8 a.u.
AGAATTGGAAACCATCACGTACTCCGCCACCAGCAAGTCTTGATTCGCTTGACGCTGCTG: 78.4 a.u.

Set 5
Target: Fragile X messenger ribonucleoprotein 1, C-terminal low-complexity region (Fmr1, Mus musculus, UniProt P35922)
Method: RNA Bind-n-Seq
Molecule type: RNA
Sample: in vitro
Tested at: 200 nM
Notes: whole 134-nt RNA, ends assumed
Added: 150 mM KCl
Baseline: input library
Direction: higher = stronger binding
Quantity: log2 enrichment
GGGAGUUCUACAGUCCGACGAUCCACAGACAACACGCACCCACACAGACACAGAGGGAAGUGGUUGGGAUGGGGACAGGGUGCACAGCAGGGCGGGGUAGGACCCCAGCCCCUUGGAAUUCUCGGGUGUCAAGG: 1.36
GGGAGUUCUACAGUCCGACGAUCCUGUGCUACACAUCGUAUGUACCGAAUCGGGGUUUUUUUGGGGAAAAAAAGGGGAAAGGGGAAAGUAUUAUGUUACGCCGUUCGGAUCUGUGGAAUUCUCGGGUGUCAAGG: -0.384
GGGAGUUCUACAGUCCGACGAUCUAACUUUAGAGGAGGAUCUGAUGGAUAUGGCAGUGGACGUGGAUUUGGGGAUGCCUAUAAUGGGUAUGGAGGAGGACCUGGAGGUGGCAAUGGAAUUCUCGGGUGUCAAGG: 0.353
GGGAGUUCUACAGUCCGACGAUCGUCCUGUGCUACACAUCGUAUGUACCGAAUCGGGAAAAGGGGAAAAGGGGAAAAGGGGAAAGUAUUAUGUUACGCCGUUCGGAUCUGCACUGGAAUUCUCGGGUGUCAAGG: 0.244
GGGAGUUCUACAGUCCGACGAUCAGUCCUGUGCUACACAUCGUAUGUACCGAAUCGGUUUGGAAAAAAAGGAAAAAAAGGAAAGUAUUAUGUUACGCCGUUCGGAUCUGCACUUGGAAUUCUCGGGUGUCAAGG: -0.773
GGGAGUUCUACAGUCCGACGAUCACCAUGCAGGUGGGCAUCUUUGGGAAGUGGGGCAAGGGGGGGAUAGGGAGCGGGGUAACACUUUGGGAACAGGUGGUCCCAGGUCGUUUCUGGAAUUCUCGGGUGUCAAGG: 0.847
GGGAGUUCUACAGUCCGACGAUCCCUGUGCUACACAUCGUAUGUACCGAAUCGGGGAAAAAAAGGGGAGGGGUUUUUUUGGGGAAAGUAUUAUGUUACGCCGUUCGGAUCUGCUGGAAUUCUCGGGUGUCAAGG: 0.173
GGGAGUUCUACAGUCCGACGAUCCUCAAGUCCUGUGCUACACAUCGUAUGUACCGAAUCGGUUUGGUUUGGGUUUGGAAAGUAUUAUGUUACGCCGUUCGGAUCUGCACUUCCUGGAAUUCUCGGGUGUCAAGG: -0.266
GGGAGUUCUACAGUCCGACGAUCCUGUGCUACACAUCGUAUGUACCGAAUCGGGCCCCCCCGGGCCCCCCCGGGGCCCCCCCGGAAAGUAUUAUGUUACGCCGUUCGGAUCUGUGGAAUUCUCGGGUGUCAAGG: -1.17
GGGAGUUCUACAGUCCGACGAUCUGGGAGGUGGAUUUUGUUUAUUUUUUUAGCUCAUUUCCAGGGGUGGGAAUUUUUUUUUAAUAUGUGUCGUGAAUAAAGUUGUUUUUGAAAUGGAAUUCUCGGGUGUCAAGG: 0.351

For quick reference, copied from above (set 4):
AAAGCGGTAATTTGCCACGTGTTTTCACATATCTATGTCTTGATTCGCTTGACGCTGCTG: 1430 a.u.
TATAATATCCGTTCGCATGTGAGTTGGCGACCTTTGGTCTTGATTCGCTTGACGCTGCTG: 91.5 a.u.
ATGCTTTAGTCTGGACTCGTGATGGTTCAACGATTTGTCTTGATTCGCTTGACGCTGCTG: 256 a.u.
GTTGTTCCATGCTCAGTTGTGATATTGAATGCCCTCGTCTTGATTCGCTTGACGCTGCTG: 76.2 a.u.
GATCCCGCTCCTTGGCGTGTTCATTCTGTTACGATCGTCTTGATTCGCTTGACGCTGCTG: 73.8 a.u.
CTTTCCCGATCTTGCCACGTGGGTGTAGCACATTTGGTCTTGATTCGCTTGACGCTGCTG: 876 a.u.
CTTTCCCGATCTTTTCACGTGCCATTAGCACATTTGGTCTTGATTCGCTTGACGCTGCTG: 1270 a.u.
TTATATCCGACGTCCCACGTGTCGGCGAAGCTCGGAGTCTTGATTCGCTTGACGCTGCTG: 643 a.u.
TACATTGCTGTATTGCACGGCCCTTGCGGGTATGGCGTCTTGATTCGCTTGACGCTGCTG: 62.5 a.u.
CATACCCAACCTTTTCACGTGGATTAAGATATTTGTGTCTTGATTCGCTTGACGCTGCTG: 784 a.u.
CTTCTGTAAATTTGTCATGTGGGTGGACGCGCCCCGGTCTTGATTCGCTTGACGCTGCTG: 159 a.u.
GTTAATGATATGTTTCACGTGGTGAGATTTTTTTTGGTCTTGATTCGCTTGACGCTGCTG: 1270 a.u.
